Measured values gathered from unrelated publications.
Compare with care: the assays were run in different laboratories.

`C=C1[C@H](O)CC(=C/C=C2\CCC[C@]3(C)[C@@H]([C@@H](C)CCCCO)CC[C@@H]23)C[C@H]1O` has an EC50 of 0.5 nM (rat osteosarcoma cells; reporter gene, activator, luciferase, refers to: CYP24A1 (24-hydroxylase) promoter; 50% increase).
With `O=c1c(-c2cnn(-c3ccccc3)c2)c(C(F)(F)F)oc2c(O)c(O)ccc12` the EC50 was > 100000 nM (breast, liver, lung tumour lines; cytotoxicity, annexin V).
`C=C1[C@H](O)CC(=C/C=C2\CCC[C@]3(C)[C@@H]([C@H](C)CCCC)CC[C@@H]23)C[C@H]1O` has an EC50 of 40 nM (rat osteosarcoma cells; reporter gene, activator, luciferase, refers to: CYP24A1 (24-hydroxylase) promoter; 50% increase).
With `FC(F)(F)c1ccnc(-c2cc(C(F)(F)F)ccn2)c1.FC(F)(F)c1ccnc(-c2cc(C(F)(F)F)ccn2)c1.[Cl-].[Cl-].[Ru+2].c1csc(-c2ccc(-c3ccc(-c4nc5c6cccnc6c6ncccc6c5[nH]4)s3)s2)c1` the EC50 was 197000 nM (SK-MEL-28; cell viability, resazurin; dark, mean normoxia and hypoxia).
The EC50 of `Cc1sc2c(c1C)C(c1ccc(Cl)cc1)=N[C@@H](CC(=O)NCC(=O)N1CCC3(CCC(C(=O)N4CCN(C(=O)c5cc(Cc6n[nH]c(=O)c7ccccc67)ccc5F)CC4)CC3)CC1)c1nnc(C)n1-2` is reported as 0.78 nM (SU-DHL-5; cell growth or viability, ATP luminescence; 72 h).
The EC50 of `CC(C)c1cnc(-c2cc(Cl)ccc2F)cc1Nc1ccncc1C(=O)NC(CO)CO` is reported as 31 nM (expanded human pan T cells; reversal of IL-2 suppression; with: TGF-beta).
`O=C(O)c1ccc(-n2[nH]cc(-c3cccnc3)c2=O)nc1` gave an EC50 of > 20000 nM (A549 HRE-luciferase reporter; HIF reporter gene, activator).
`Cc1cc(Nc2ccc(NC(=O)c3ccc(Nc4cc(C)nc(N)n4)cc3)cc2)nc(N)n1` has an EC50 of > 10000 nM (KG-1; cell proliferation; 3 days, 15 % fetal calf serum).
The EC50 of `O=c1c(-n2ccnc2)c[nH]n1-c1ccccn1` is reported as > 20000 nM (A549 HRE-luciferase reporter; HIF reporter gene, activator).
For `C(=C/c1ccccc1)/c1ccccc1`, the EC50 was > 50000 nM (K562; apoptosis, flow cytometry, refers to: caspase-3 activity; 24 h, 50% apoptosis induction).

For quick reference, copied from above:
The EC50 of `O=c1c(-n2ccnc2)c[nH]n1-c1ccccn1` is reported as > 20000 nM (A549 HRE-luciferase reporter; HIF reporter gene, activator).
